Measurements gathered from unrelated publications.
Parts stem from different laboratories: compare values within a part only.

Study 1
Target: Histone acetyltransferase KAT6A, both winged helices, GST fusion (KAT6A, Homo sapiens, UniProt Q92794, residues 1-181)
Technique: protein binding microarray
Molecule type: double-stranded DNA, one strand shown
Medium: in vitro
Concentration: not given
Notes: 8-mer, flanks averaged, mean of 2 arrays, mostly near background
Relative to: not given
Reading: higher = stronger binding
Construct (chain): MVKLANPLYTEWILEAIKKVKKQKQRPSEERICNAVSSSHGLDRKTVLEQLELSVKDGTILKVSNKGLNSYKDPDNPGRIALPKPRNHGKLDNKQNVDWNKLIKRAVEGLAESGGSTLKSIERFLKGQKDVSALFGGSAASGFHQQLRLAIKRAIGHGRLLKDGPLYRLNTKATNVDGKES
| Oligonucleotide | E-score |
| --- | --- |
| CGGATATC | 0.202 |
| CAAGAGTA | -0.175 |
| GTGATCTA | -0.00643 |
| ATTCTAAA | -0.0329 |

Mixed results
SALL4 full length isoform B: Sal-like protein 4, full length isoform B (SALL4, Homo sapiens, UniProt Q9UJQ4-2, residues 1-616)
F2 mature alpha-thrombin: Prothrombin, mature alpha-thrombin (F2, Homo sapiens, UniProt P00734)
| Substance | target | assay | test system | setting | scale | measurement | value |
| --- | --- | --- | --- | --- | --- | --- | --- |
| CCAAATAG | SALL4 full length isoform B | universal PBM | double-stranded DNA, one strand shown, in vitro | not given, 8-mer, flanks averaged, mean of replicates | higher = stronger binding | E-score | 0.0616 |
| PhoQ, residues 284 288 289 292 302 303 AGHLVA | PhoP, residues 12 14 15 18 19 HLGGL (Escherichia coli, UniProt P23836) | Sort-seq, item: YFP reporter | E. coli | PhoQ-PhoP variant library, added: 10 µM Mg2+ | relative to: high Mg2+ state, higher = stronger signaling | fold induction | 1.25 |
| ACCGAAAG | SALL4 full length isoform B | universal PBM | double-stranded DNA, one strand shown, in vitro | not given, 8-mer, flanks averaged, mean of replicates | higher = stronger binding | E-score | 0.00162 |
| GGTTGGTGTGGTTGG (2'F-ANA at 1 3 4 8 9 11 14) | F2 mature alpha-thrombin | aptamer microarray, sandwich | DNA with 2'F-ANA, in vitro | 200 nM, whole 15-mer aptamer, many near background, added: Cy3 exosite-II aptamer, 400 nM | higher = stronger binding | mean fluorescence intensity | 66.7 a.u. |
| AGCAAGCA | SALL4 full length isoform B | universal PBM | double-stranded DNA, one strand shown, in vitro | not given, 8-mer, flanks averaged, mean of replicates | higher = stronger binding | E-score | -0.143 |
| GGTTGGTGTGGTTGG (2'F-ANA at 1 2 3 10 11 13) | F2 mature alpha-thrombin | aptamer microarray, sandwich | DNA with 2'F-ANA, in vitro | 200 nM, whole 15-mer aptamer, many near background, added: Cy3 exosite-II aptamer, 400 nM | higher = stronger binding | mean fluorescence intensity | 57.8 a.u. |

Repeated from above (mixed results):
| Substance | target | assay | test system | setting | scale | measurement | value |
| --- | --- | --- | --- | --- | --- | --- | --- |
| CCAAATAG | SALL4 full length isoform B | universal PBM | double-stranded DNA, one strand shown, in vitro | not given, 8-mer, flanks averaged, mean of replicates | higher = stronger binding | E-score | 0.0616 |
